Published values gathered from unrelated publications.
Compare with care: the assays were run in different laboratories. ± marks the error that the study gave.
Technique: steady-state kinetics
B1: PLBD1 self-cleaved, cathepsin L-processed (Homo sapiens, UniProt Q6P4A8); chain 1 GVYYATAYWMPAEKTVQVKNVMDKNGDAYGFYNNSVKTTGWGILEIRAGYGSQTLSNEIIMFVAGFLEGYLTAPHMNDHYTNLYPQLITKPSIMDKVQDFMEKQDKWTRKNIKEYKTDSFWRHTGYVMAQIDGLYVGAKKRAILEGTKPMTLFQIQFLNSVGDLLDLIPS; chain 2 CSALIKVLPGFENILFAHSSWYTYAAMLRIYKHWDFNVIDKDTSSSRLSFSSYPGFLESLDDFYILSSGLILLQTTNSVFNKTLLKQVIPETLLSWQRVRVANMMADSGKRWADIFSKYNSGTYNNQYMVLDLKKVKLNHSLDKGTLYIVEQIPTYVEYSEQTDVLRKGYWPSYNVPFHEKIYNWSGYPLLVQKLGLDYSYDLAPRAKIFRRDQGKVTDTASMKYIMRYNNYKKDPYSRGDPCNTICCREDLNSPNPSPGGCYDTKVADIYLASQYTSYAISGPTVQGGLPVFRWDRFNKTLHQGMPEVYNFDFITMKPILKLDIK
B2: carbamoyl phosphate synthetase large subunit M174E/M378E (Escherichia coli, UniProt P00968); chain PKRTDIKSILILGAGPIVIGQACEFDYSGAQACKALREEGYRVILVNSNPATIMTDPEMADATYIEPIHWEVVRKIIEKERPDAVLPTMGGQTALNCALELERQGVLEEFGVTMIGATADAIDKAEDRRRFDVAMKKIGLETARSGIAHTMEEALAVAADVGFPCIIRPSFTEGGSGGGIAYNREEFEEICARGLDLSPTKELLIDESLIGWKEYEMEVVRDKNDNCIIVCSIENFDAMGIHTGDSITVAPAQTLTDKEYQIMRNASMAVLREIGVETGGSNVQFAVNPKNGRLIVIEMNPRVSRSSALASKATGFPIAKVAAKLAVGYTLDELMNDITGGRTPASFEPSIDYVVTKIPRFNFEKFAGANDRLTTQEKSVGEVMAIGRTQQESLQKALRGLEVGATGFDPKVSLDDPEALTKIRRELKDAGADRIWYIADAFRAGLSVDGVFNLTNIDRWFLVQIEELVRLEEKVAEVGITGLNADFLRQLKRKGFADARLAKLAGVREAEIRKLRDQYDLHPVYKRVDTCAAEFATDTAYMYSTYEEECEANPSTDREKIMVLGGGPNRIGQGIEFDYCCVHASLALREDGYETIMVNCNPETVSTDYDTSDRLYFEPVTLEDVLEIVRIEKPKGVIVQYGGQTPLKLARALEAAGVPVIGTSPDAIDRAEDRERFQHAVERLKLKQPANATVTAIEMAVEKAKEIGYPLVVRPSYVLGGRAMEIVYDEADLRRYFQTAVSVSNDAPVLLDHFLDDAVEVDVDAICDGEMVLIGGIMEHIEQAGVHSGDSACSLPAYTLSQEIQDVMRQQVQKLAFELQVRGLMNVQFAVKNNEVYLIEVNPRAARTVPFVSKATGVPLAKVAARVMAGKSLAEQGVTKEVIPPYYSVKEVVLPFNKFPGVDPLLGPEMRSTGEVMGVGRTFAEAFAKAQLGSNSTMKKHGRALLSVREGDKERVVDLAAKLLKQGFELDATHGTAIVLGEAGINPRLVNKVHEGRPHIQDRIKNGEYTYIINTTSGRRAIEDSRVIRRSALQYKVHYDTTLNGGFATAMALNADATEKVISVQEMHAQIK
B3: phyA (Aspergillus niger, UniProt P34752); chain ASRNQSSCDTVDQGYQCFSETSHLWGQYAPFFSLANESVISPEVPAGCRVTFAQVLSRHGARYPTDSKGKKYSALIEEIQQNATTFDGKYAFLKTYNYSLGADDLTPFGEQELVNSGIKFYQRYESLTRNIVPFIRSSGSSRVIASGKKFIEGFQSTKLKDPRAQPGQSSPKIDVVISEASSSNNTLDPGTCTVFEDSELADTVEANFTATFVPSIRQRLENDLSGVTLTDTEVTYLMDMCSFDTISTSTVDTKLSPFCDLFTHDEWINYDYLQSLKKYYGHGAGNPLGPTQGVGYANELIARLTHSPVHDDTSSNHTLDSSPATFPLNSTLYADFSHDNGIISILFALGLYNGTKPLSTTTVENITQTDGFSSAWTVPFASRLYVEMMQCQAEQEPLVRVLVNDRVVPLHGCPVDALGRCTRDSFVRGLSFARSGGDWAECFA
B4: enzyme (Trichoderma reesei, UniProt G0RH19); chain KNGAFPHDNAAVPNVERVLPLFSLKGRTAIVSGAGAGIGLAVAQAFAEAGANVAIWYNSNKQAVTSAEDIAKTYGVKCKAYQVNVTSAEAVDKAITEIIKEFNGRLDVFVANSGITWTEGAFIDGSVESARNVMSVNVDGVMWCAKSAGAHFRRQKEEGTTIDGKPLDNFIAGSFIATASMSGSIVNVPQLQAVYNSSKAAVIHFCKSLAVEWTGFARVNTVSPGYIITEISNFVPPETKTLWKDKIVMGREGRVGELKGAYLYLASDASSYTTGLDMIVDGGYSLP
B5: msrA (Clostridium oremlandii, UniProt A8MI53); chain MDTNQKLSIAVFALGUFWGPDAQFGSIKGVVSTRVGYAGGTTNNPSYYNLGDHSESIEIQYDANVITYGELLNIFWNLHNPVYETTNRQYMSRIFYLDDGQKSEALEMKRQIEAANGEKIYTEIVPLENFYLAEGYHQKYYLQNTTKLYQTLKAIYGGFGNLVRSTLAARMNGYIAGNLSIASLKEEMDLVELPEDQYEKVLSIVEEIK
B6: CstB (Staphylococcus aureus, UniProt G5ELA4); chain MFFKQFYDNHLSQASYLVGCQRTGEAIIIDPVRDLSKYIEVADSEGLTITQATETHIHADFASGIRDVAKRLNANIYVSGEGEDALGYKNMPSKTQFVKHGDIIQVGNVKLEVLHTPGHTPESISFLLTDLGGGSSVPMGLFSGDFIFVGDIGRPDLLEKSVQIKGSTEISAKQMYESVQNIKNLPDYVQIWPGHGAGSPCGKALGAIPISTIGYEKINNWAFNEIDETKFIESLTSNQPAPPHHFAQMKQVNQFGMNLYQSYDVYPSLDNKRVAFDLRSKEAFHGGHTKGTINIPYNKNFINQIGWYLDFEKDIDLIGDKSTVEKAKHTLQLIGFDKVAGYRLPKSGISTQSVHSADMTGKEEHVLDVRNDEEWNNGHLDQAVNIPHGKLLNENIPFNKEDKIYVHCQSGVRSSIAVGILESKGFENVVNIREGYQDFPESLK
B7: enzyme D254A (Thermococcus kodakarensis, UniProt Q5JID5); chain MLYVEILGNLPEMARDEVKAMLELGGGEIIGQDYLFLKVDAGEKAFPFLDRLGLAHEYGLLLVEADSVEELLQKAGEVEWPIKGAFKVDTETMANCRHDVLDLPRKLGAVIHAQGFRVNLSKPDTVVRVYCGERLYAGIRLRYFDPKDFEKRKAHHRPFFRPISLHPRVSRALVNLTKATREILDPFMGAGGILIEAGLLGLRVYGVDIRPEMVEGAETNLKHYGVRDYTLKLGDATRLEDLFPDKKFEAVATAPPYGTAATLAGRKRDELYRKALRSIYNVLEDGGRLAIAFPTDFNGKAEAEAVGFRTLGRYYQRVHKSLERYFYVFEK
B8: enzyme (Pseudomonas putida, UniProt Q88P31); chain MAAISVEPCTFALFGALGDLALRKLFPALYQLDRANLLHPDTRLLALAREVGSAQEHLDSIEAHLRRHVPEADIEPAALGRFLARLNYQHLDFLQPEGYQALAEQLPGELPLIAYFATAAAVYGAICENLDKVGLAARTRVVLEKPIGHDLESSRRVNDAVARFFPESRVYRIDHYLGKETVQNLIALRFANSLFETQWNQNSISHVEITVAEKVGIEGRWGYFDKAGQLRDMIQNHLLQLLCLIAMDPPSELSADAIRDEKVKVLKALAPITGDGLSTSVVRGQYIAGYSEGKPVPGYLEEDNANAQSDTETFVALRADIRNWRWSGVPFYLRTGKRMPQKLSQIVIHFKETPHYIFAPEQRLQIGNKLIIRLQPDEGISLRVMTKEQGLDKGMQLRSGPLQLNFSDAWRSARIPDAYERLLLEVMRGNQNLFVRKDEIEYAWKWCDQLIAGWRNAGDAPKPYAAGSWGPMSSIALITRDGRAWYGDI
UniProt Q9HJT3, sequence (whole entry, looked up): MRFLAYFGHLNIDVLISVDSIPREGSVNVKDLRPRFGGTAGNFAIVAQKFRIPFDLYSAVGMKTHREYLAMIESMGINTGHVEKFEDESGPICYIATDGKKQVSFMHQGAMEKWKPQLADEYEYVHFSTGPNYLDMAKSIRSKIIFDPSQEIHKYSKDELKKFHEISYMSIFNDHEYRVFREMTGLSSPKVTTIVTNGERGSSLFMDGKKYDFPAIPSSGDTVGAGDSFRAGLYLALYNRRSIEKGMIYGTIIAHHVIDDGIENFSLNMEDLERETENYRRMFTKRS
UniProt P22303, sequence (whole entry, looked up): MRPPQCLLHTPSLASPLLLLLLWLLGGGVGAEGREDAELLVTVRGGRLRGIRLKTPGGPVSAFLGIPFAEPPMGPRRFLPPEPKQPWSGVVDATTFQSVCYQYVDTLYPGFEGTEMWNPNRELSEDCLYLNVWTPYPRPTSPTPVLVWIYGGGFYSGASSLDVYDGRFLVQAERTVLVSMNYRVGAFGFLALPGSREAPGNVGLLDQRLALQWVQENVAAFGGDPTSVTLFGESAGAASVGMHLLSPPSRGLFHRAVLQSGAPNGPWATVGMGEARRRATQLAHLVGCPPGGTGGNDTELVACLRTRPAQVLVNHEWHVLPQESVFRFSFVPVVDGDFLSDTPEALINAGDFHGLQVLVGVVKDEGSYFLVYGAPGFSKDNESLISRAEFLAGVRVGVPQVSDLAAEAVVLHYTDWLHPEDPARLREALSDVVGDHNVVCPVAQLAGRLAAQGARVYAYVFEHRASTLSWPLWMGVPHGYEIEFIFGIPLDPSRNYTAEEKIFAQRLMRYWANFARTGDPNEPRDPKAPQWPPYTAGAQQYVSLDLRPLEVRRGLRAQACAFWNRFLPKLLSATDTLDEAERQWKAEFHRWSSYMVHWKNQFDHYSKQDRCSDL

Substance	substrate	setting	kcat
B1	Cc1cc(=O)oc2cc(NC(=O)[C@@H](N)CC(C)C)ccc12	pH 4.5, 37 °C, together with: cathepsin L	0.74 s⁻¹
B2	Nc1ncnc2c1ncn2[C@@H]1O[C@H](COP(=O)(O)OP(=O)(O)OP(=O)(O)O)[C@@H](O)[C@H]1O	pH 7.6, KCl 100 mM, together with: glutamine 10 mM, ornithine 10 mM	0.043 ± 0.002 s⁻¹
B3 (phyA)	O=P(O)(O)O[C@@H]1[C@H](OP(=O)(O)O)[C@H](O)[C@@H](O)[C@H](O)[C@H]1OP(=O)(O)O	pH 5, 37 °C	106 ± 11 s⁻¹
putA (Bradyrhizobium diazoefficiens, UniProt Q89E26)	O=C(O)[C@@H]1CCC=N1	pH 7.5, 23 °C	3.4 ± 0.1 s⁻¹
ACHE (Homo sapiens, UniProt P22303)	CC(=O)SCC[N+](C)(C)C	pH 8, 22 °C	7180 ± 583 s⁻¹
B4 (enzyme)	NC(=O)C1=CN([C@@H]2O[C@H](COP(=O)(O)OP(=O)(O)OC[C@H]3O[C@@H](n4cnc5c(N)ncnc54)[C@H](OP(=O)(O)O)[C@@H]3O)[C@@H](O)[C@H]2O)C=CC1	pH 7, cofactor varied	7.75 s⁻¹
enzyme (Limosilactobacillus reuteri, UniProt Q8GP32)	OC[C@H]1O[C@@](CO)(O[C@H]2O[C@H](CO)[C@@H](O)[C@H](O)[C@H]2O)[C@@H](O)[C@@H]1O	pH 5.5, 50 °C, apparent	760 ± 100 s⁻¹
B5 (msrA)	CN(C)c1ccc(N=Nc2ccc(S(=O)(=O)N[C@@H](CC[S@+](C)[O-])C(=O)O)cc2)cc1	pH 7.5, 37 °C, 50 mM NaCl, Km above tested range, together with: 20 mM DTT reductant	84 ± 5 s⁻¹
B6 (CstB)	N[C@@H](CSS)C(=O)N[C@H]1[C@@H](O[C@@H](CC(=O)O)C(=O)O)O[C@H](CO)[C@@H](O)[C@@H]1O	pH 6, 25 °C, NaBr 100 mM, air-saturated, together with: Fe(II), O2	19.7 ± 2.5 s⁻¹
TaNK (Thermoplasma acidophilum, UniProt Q9HJT3)	Nc1nc2c(ncn2[C@@H]2O[C@H](COP(=O)(O)OP(=O)(O)OP(=O)(O)O)[C@@H](O)[C@H]2O)c(=O)[nH]1	pH 8, 22 °C, apparent, together with: inosine, Mg2+	0.266 ± 0.027 s⁻¹
B7 (enzyme D254A)	C[S+](CC[C@H](N)C(=O)O)C[C@H]1O[C@@H](n2cnc3c(N)ncnc32)[C@H](O)[C@@H]1O	pH 7.5, 50 °C, apparent	0.00167 ± 0.000333 s⁻¹
B8 (enzyme)	NC(=O)c1ccc[n+]([C@@H]2O[C@H](COP(=O)(O)OP(=O)(O)OC[C@H]3O[C@@H](n4cnc5c(N)ncnc54)[C@H](OP(=O)(O)O)[C@@H]3O)[C@@H](O)[C@H]2O)c1	pH 8, 30 °C	102 ± 1 s⁻¹
